Measured values from different studies.
Each line is one published result; not all experiments were run side by side. Several values in a cell are separate wells, animals, samples, runs or records. ± marks the error that the study gave.
Cell line: RAW264.7

The IC50 of `COc1ccc(-n2cc(C(=O)N3C[C@]4(OC(=O)c5ccccc5NC(C)=O)CC[C@H](OC)[C@@]56[C@@H]4C[C@@H]([C@@H]35)[C@@]3(O)C[C@H](OC)[C@H]4C[C@@H]6[C@]3(O)[C@H]4OC)nn2)cc1` is reported as over 100 µM (PGE2 release, inhibitor, ELISA; 24 h, LPS-stimulated).
`COC1=C[C@@H]2[C@@H]3Cc4ccc(OC)c(OC(=O)[C@@H](N)CC(C)C)c4[C@]2(CCN3C)CC1=O` gave an IC50 of 69.2 µM (NO release, inhibitor, Griess; LPS-stimulated).
`CCCCn1cc(C(=O)O)c(=O)c2cc(F)c(Nc3ccccc3Cl)c(N)c21` has an IC50 of 56.5 ± 3.56 µg/mL (nitric oxide production, Griess; 24 h, together with: LPS).
For `CC1=C(C)C(=O)O[C@@H]([C@](C)(O)[C@]2(O)CC[C@]3(O)[C@@H]4C[C@H]5O[C@]56[C@@H](O)[C@@H](O)CC(=O)[C@]6(C)[C@H]4CC[C@]23C)C1`, the IC50 was 24.3 µM (NO release, inhibitor, Griess; LPS-stimulated).
For `CCCCn1cc(C(=O)O)c(=O)c2cc(F)c(Nc3ccccc3Cl)c([N+](=O)[O-])c21`, the IC50 was 72.3 µM (NO release, inhibitor, Griess; LPS-stimulated).
The IC50 of `O=C(/C=C/CBr)O[C@@H]1COC(=O)C1` is reported as 1.5 µM (NO release, inhibitor; LPS-stimulated).
With `CCCCn1cc(C(=O)O)c(=O)c2cc(F)c(Nc3cccc(Cl)c3)c(N)c21` the IC50 was 5 µM and 5.39 µM (NO release, inhibitor, Griess; LPS-stimulated).
The IC50 of `COC1=C[C@@H]2[C@@H]3Cc4ccc(OC)c(OC(=O)c5ccnnc5)c4[C@]2(CCN3C)CC1=O` is reported as 77.8 µM (NO release, inhibitor, Griess; LPS-stimulated).
With `O=C(/C=C/CF)O[C@@H]1COC(=O)C1` the IC50 was 4.3 µM (NO release, inhibitor; LPS-stimulated).
The IC50 of `CNCC(=O)Oc1c(OC)ccc2c1[C@@]13CCN(C)[C@@H](C2)[C@H]1C=C(OC)C(=O)C3` is reported as 41.7 µM (NO release, inhibitor, Griess; LPS-stimulated).
For `CC(C)C1=C(OC(=O)Cc2ccccc2)C(=O)C2=C(C=C[C@H]3C(C)(C)CCC[C@]23C)C1=O`, the IC50 was 9.94 µM (NO release, inhibitor; 24 h, LPS-stimulated).
With `COC1=C[C@@H]2[C@@H]3Cc4c(COC(=O)c5cnc(C)cn5)cc(OC)c(OC(=O)c5cnc(C)cn5)c4[C@]2(CCN3C)CC1=O` the IC50 was 69.1 µM (NO release, inhibitor, Griess; LPS-stimulated).
The IC50 of `CCCCn1cc(C(=O)O)c(=O)c2cc(F)c3c(nnn3-c3ccccc3Cl)c21` is reported as 84 µM and 84.2 µM (NO release, inhibitor, Griess; LPS-stimulated).

Some of these lines once more:
`CCCCn1cc(C(=O)O)c(=O)c2cc(F)c(Nc3ccccc3Cl)c(N)c21` has an IC50 of 56.5 ± 3.56 µg/mL (nitric oxide production, Griess; 24 h, together with: LPS).
